Experimental data pooled from the literature.
Compare with care: the assays were run in different laboratories. “And” joins repeats or separate records; there may be more than shown. ± marks the error that the study gave.

Cc1ncc2c(n1)CN(C(=O)Nc1nc(-c3cccs3)ccc1N)C2 — Cmax (C57BL/6 mouse, brain; oral gavage, 10 mg/kg, 20% HPβCD in water): 289 ng/mL
O=S(=O)(Nc1ccc(OC(F)(F)F)cc1)N1CCCC(C2c3ccc(F)cc3CCc3cc(F)ccc32)C1 (centres unmarked) — Cmax (mouse; oral, 30 mg/kg): ~18 µM
O=S(=O)(NCc1ccncc1)c1ccc(C2CCCCC2)cc1 — Cmax (C57BL/6J mouse, male, peripheral fat; intraperitoneal, 0.3 mg/kg): 0.131 µM
CN[C@H](CC(C)C)C(=O)N[C@H]1C(=O)N[C@@H](CC(N)=O)C(=O)N[C@H]2CN[C@H]3C(=O)N[C@H](C(=O)N[C@H](C(=O)NCCCNC(=N)N)c4cc(O)cc(O)c4-c4cc3ccc4O)[C@H](O)c3ccc(c(Cl)c3)Oc3cc2cc(c3O[C@@H]2O[C@H](CO)[C@@H](O)[C@H](O)[C@H]2O[C@H]2C[C@](C)(NCc3ccc(-c4ccc(Cl)cc4)cc3)[C@H](O)[C@H](C)O2)Oc2ccc(cc2Cl)[C@H]1O — Cmax (mouse; intravenous, 10 mg/kg): 78900 ng/mL
O=S(=O)(N[C@H]1CCC[C@@H](N2c3ccccc3CCc3ccccc32)[C@@H]1O)c1ccc(OC(F)(F)F)cc1 — Cmax (mouse, plasma; oral, 100 mg/kg, solution): 2250 ng/mL
C/C(N)=N/C(=N\S(=O)(=O)c1ccc(C(F)(F)F)cc1)N1C[C@H](c2ccccc2)C(c2ccc(Cl)cc2)=N1 — Cmax (C57BL/6 mouse, male, plasma; oral, 10 mg/kg): 1300 ng/mL
O=C1CCC(N2Cc3cc(C(=O)O)c(F)cc3C2=O)C(=O)N1 (centres unmarked) — Cmax (male CD-1 mouse, plasma; oral, 10 mg/kg of parent drug): 242 ± 119 ng/mL
O=c1c(-c2cnn(-c3ccccc3)c2)c(C(F)(F)F)oc2c(O)c(O)ccc12 — Cmax (mouse; intraperitoneal, 100 mg/kg, DMSO vehicle): 36.9 µM
O=C(c1ccccc1)N1C(c2ccc(OCC3CCN(CCCF)C3)cc2)c2ccc(O)cc2CC12CC2 (centres unmarked) — Cmax (C57BL/6J mouse, plasma; intraperitoneal, 25 mg/kg): 4540 ng/mL and 6200 ng/mL
CN[C@H](CC(C)C)C(=O)N[C@H]1C(=O)N[C@@H](CC(N)=O)C(=O)N[C@H]2C(=N)N[C@H]3C(=O)N[C@H](C(=O)N[C@H](C(=O)NCCC[N+](C)(C)C)c4cc(O)cc(O)c4-c4cc3ccc4O)[C@H](O)c3ccc(c(Cl)c3)Oc3cc2cc(c3O[C@@H]2O[C@H](CO)[C@@H](O)[C@H](O)[C@H]2O[C@H]2C[C@](C)(NCc3ccc(-c4ccc(Cl)cc4)cc3)[C@H](O)[C@H](C)O2)Oc2ccc(cc2Cl)[C@H]1O — Cmax (mouse; intravenous, 50 mg/kg): 387000 ng/mL
Cc1nn(-c2nc3c(F)cc(F)cc3s2)c(O)c1C(c1ccc(C(F)(F)F)cc1)c1c(C)nn(-c2nc3c(F)cc(F)cc3s2)c1O — Cmax (ICR mouse, plasma; intravenous, 5 mg/kg): 9720 ng/mL and 21600 ng/mL and 12700 ng/mL
CC[C@H](C)[C@H](NC(=O)[C@H](CCCNC(=N)N)NC(=O)[C@H](Cc1c[nH]cn1)NC(=O)[C@@H](N)[C@@H](C)O)C(=O)N[C@@H](CC(C)C)C(=O)N[C@@H](CCCNC(=N)N)C(=O)N[C@@H](CCCNC(=N)N)C(=O)N[C@@H](CC(C)C)C(=O)N[C@@H](Cc1ccccc1)C(=O)N[C@@H](CC(N)=O)C(=O)N[C@@H](CC(C)C)C(=O)N[C@@H](CS)C(N)=O — Cmax (male C57BL/6J mouse, plasma; intraperitoneal, 5 mg/kg): 0.007 µM
Cc1[nH]nc2c1N=C(c1ccccc1Cl)c1cnc(N3CCOCC3)cc1N2 — Cmax (nude mouse, HCC1806 xenograft, plasma; oral, 15 mg/kg once daily): 443 ng/mL
Cc1ncsc1-c1ccc(CNC(=O)[C@@H]2C[C@@H](O)CN2C(=O)[C@@H](NC(=O)COCC(C)(COCCOCCOCCNC(=O)C[C@@H]2N=C(c3ccc(Cl)cc3)c3c(sc(C)c3C)-n3c(C)nnc32)COCCOCCOCCNC(=O)C[C@@H]2N=C(c3ccc(Cl)cc3)c3c(sc(C)c3C)-n3c(C)nnc32)C(C)(C)C)cc1 — Cmax (C57BL/6 mouse, male, plasma; subcutaneous, 5 mg/kg): 3830 ng/mL

For quick reference, copied from above:
O=c1c(-c2cnn(-c3ccccc3)c2)c(C(F)(F)F)oc2c(O)c(O)ccc12 — Cmax (mouse; intraperitoneal, 100 mg/kg, DMSO vehicle): 36.9 µM
